Results gathered from unrelated publications.
Each line is one published result; not all experiments were run side by side. ± gives the spread as reported.
CNR1 I245L: Cannabinoid receptor 1 (CNR1, Homo sapiens, UniProt P21554, I245L)
Chain of UniProt P21554 (whole entry, unmodified, looked up): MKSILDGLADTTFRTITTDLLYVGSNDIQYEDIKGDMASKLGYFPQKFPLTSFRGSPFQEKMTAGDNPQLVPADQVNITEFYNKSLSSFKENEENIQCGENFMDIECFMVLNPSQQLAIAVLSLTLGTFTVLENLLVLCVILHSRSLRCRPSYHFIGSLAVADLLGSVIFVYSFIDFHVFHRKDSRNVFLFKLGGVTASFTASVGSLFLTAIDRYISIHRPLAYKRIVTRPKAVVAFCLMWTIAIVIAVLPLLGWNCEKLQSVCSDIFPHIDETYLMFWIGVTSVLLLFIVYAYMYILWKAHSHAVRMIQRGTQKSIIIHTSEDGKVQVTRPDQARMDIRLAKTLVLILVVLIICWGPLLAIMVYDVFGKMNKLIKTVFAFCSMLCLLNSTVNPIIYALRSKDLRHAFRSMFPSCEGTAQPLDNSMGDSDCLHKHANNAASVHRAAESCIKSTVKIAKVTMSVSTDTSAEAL
VIPR2: Vasoactive intestinal polypeptide receptor 2 (VIPR2, Homo sapiens, UniProt P41587)
Chain of UniProt P41587 (whole entry, looked up): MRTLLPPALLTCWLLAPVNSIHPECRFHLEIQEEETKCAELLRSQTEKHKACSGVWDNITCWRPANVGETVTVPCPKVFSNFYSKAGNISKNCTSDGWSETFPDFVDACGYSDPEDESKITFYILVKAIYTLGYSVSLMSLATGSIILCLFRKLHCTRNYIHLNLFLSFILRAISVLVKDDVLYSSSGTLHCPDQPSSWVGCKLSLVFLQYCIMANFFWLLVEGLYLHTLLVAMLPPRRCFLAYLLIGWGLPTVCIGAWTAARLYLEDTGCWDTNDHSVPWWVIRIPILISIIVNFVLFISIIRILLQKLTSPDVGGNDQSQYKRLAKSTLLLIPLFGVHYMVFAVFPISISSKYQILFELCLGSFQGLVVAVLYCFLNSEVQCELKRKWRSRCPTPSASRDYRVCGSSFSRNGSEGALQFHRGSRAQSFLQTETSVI
Chain of UniProt P14091 (whole entry, looked up): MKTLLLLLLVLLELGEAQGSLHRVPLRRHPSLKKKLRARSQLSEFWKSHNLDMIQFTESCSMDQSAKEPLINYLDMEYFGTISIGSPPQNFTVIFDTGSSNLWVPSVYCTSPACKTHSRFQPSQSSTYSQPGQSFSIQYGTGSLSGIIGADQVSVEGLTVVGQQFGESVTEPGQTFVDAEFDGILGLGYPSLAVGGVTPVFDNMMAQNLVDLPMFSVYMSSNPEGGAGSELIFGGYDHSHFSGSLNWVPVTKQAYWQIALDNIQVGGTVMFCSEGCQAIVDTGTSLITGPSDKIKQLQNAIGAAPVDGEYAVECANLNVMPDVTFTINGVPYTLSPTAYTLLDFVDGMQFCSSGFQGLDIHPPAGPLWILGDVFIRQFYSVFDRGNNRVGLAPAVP
Chain of UniProt P41143 (whole entry, unmodified, looked up): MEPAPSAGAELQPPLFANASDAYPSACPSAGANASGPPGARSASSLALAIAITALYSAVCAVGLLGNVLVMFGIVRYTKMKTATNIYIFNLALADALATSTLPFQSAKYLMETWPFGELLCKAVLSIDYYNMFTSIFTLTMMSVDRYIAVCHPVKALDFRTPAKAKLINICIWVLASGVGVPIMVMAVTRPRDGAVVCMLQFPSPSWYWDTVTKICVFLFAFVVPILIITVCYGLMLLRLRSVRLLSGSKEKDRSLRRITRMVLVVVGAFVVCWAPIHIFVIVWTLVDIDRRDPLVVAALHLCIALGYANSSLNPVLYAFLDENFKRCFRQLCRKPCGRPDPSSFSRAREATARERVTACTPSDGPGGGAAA
Chain of UniProt P50406 (whole entry, looked up): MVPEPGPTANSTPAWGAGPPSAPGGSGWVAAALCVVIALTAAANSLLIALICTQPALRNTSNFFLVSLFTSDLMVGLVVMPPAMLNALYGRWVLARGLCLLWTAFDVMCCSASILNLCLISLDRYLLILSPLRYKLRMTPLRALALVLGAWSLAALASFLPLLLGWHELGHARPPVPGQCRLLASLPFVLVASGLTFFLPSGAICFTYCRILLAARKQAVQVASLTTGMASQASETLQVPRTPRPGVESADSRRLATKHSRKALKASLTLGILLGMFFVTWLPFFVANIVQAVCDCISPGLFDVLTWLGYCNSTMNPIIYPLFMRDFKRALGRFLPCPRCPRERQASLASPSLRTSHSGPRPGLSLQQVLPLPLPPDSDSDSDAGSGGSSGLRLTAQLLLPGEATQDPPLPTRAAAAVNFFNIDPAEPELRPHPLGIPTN
Chain of UniProt P14416 (whole entry, looked up): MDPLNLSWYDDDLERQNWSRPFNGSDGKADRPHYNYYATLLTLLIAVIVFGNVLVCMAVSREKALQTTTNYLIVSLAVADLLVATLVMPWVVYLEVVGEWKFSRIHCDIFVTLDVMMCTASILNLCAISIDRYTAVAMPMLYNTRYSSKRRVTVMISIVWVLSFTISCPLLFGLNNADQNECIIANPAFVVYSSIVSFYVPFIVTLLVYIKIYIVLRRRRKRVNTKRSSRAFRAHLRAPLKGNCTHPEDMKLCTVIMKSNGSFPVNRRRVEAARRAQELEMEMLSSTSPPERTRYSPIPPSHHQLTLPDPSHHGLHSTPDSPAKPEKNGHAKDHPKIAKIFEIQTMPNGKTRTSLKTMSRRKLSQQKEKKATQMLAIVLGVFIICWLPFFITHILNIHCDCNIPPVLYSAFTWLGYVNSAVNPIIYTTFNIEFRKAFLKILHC
Chain of UniProt P28221 (whole entry, looked up): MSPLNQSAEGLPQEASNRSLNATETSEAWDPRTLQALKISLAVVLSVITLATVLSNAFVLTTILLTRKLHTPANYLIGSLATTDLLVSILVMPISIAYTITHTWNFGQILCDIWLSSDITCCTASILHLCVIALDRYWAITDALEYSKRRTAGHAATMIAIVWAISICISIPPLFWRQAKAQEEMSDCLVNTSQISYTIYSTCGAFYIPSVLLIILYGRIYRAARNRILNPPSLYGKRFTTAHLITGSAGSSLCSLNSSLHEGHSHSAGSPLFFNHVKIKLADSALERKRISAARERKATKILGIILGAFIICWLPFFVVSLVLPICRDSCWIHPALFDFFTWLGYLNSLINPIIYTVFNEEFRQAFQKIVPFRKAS
Chain of UniProt P35348 (whole entry, looked up): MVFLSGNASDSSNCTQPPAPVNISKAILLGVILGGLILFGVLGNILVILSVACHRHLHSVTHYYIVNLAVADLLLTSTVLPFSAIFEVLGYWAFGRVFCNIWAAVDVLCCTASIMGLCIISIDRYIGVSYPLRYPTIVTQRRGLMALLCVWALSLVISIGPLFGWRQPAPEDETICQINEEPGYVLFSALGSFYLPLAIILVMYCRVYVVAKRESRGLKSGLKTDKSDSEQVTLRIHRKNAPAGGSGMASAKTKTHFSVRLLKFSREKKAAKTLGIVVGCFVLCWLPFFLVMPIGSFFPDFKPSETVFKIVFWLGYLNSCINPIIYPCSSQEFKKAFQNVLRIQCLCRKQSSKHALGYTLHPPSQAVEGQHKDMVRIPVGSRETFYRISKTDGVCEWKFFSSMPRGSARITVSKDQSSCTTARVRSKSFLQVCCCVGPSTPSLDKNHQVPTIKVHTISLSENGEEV

For `Cc1ccc2c(C(C[N+](=O)[O-])c3cccs3)c(-c3ccccc3)[nH]c2c1` (centres unmarked), the EC50 was 0.03 µM (CNR1 I245L; G protein activation, agonist, BRET).
`CCN(CC)C(=O)[C@@H]1C=C2c3cccc4c3c(cn4C(=O)c3ccco3)C[C@H]2N(C)C1` has a Ki of 1.15 µM (5-hydroxytryptamine receptor 1D (HTR1D, Homo sapiens, UniProt P28221); ligand displacement, radioligand).
For `O=C1c2ccccc2CCCN1CCCCN1CCN(c2cccc(Cl)c2Cl)CC1`, the Ki was 0.217 µM (Alpha-1A adrenergic receptor (ADRA1A, Homo sapiens, UniProt P35348); ligand displacement, radioligand).
`CCN(CC)C(=O)c1ccc(C(c2cccc(O)c2)N2CC(C)N(Cc3ccccc3)CC2C)cc1` (centres unmarked) has a Ki of 0.00126 ± 0.00019 µM (Delta-type opioid receptor (OPRD1, Homo sapiens, UniProt P41143, D210N)).
For `C[C@@H](Cc1ccsc1)NC(=O)NC[C@H](Cc1ccc(O)cc1)N(C)C`, the Ki was 28 µM (5-hydroxytryptamine receptor 6 (HTR6, Homo sapiens, UniProt P50406)).
Under “organ-to-body weight ratio”, `O=C1NC2(CC2)COc2ncc(F)cc2[C@H]2COCCN2c2ccn3ncc1c3n2` is recorded as 0.257 ± 0.019% (Sprague-Dawley rat, female, spleen; oral, 20 mg/kg/day, 4 weeks dosing, end of recovery).
For `CSCC[C@H](NC(=O)[C@H](CCC(N)=O)NC(=O)[C@H](CCCCN)NC(=O)[C@H](CCCNC(=N)N)NC(=O)[C@H](Cc1ccc(O)cc1)NC(=O)[C@H](CCCNC(=N)N)NC(=O)[C@H](CO)NC(=O)[C@H](Cc1ccc(O)cc1)NC(=O)[C@H](CO)NC(=O)[C@H](CC(=O)O)NC(=O)[C@@H](NC(=O)[C@@H](N)Cc1ccccc1)[C@@H](C)O)C(=O)N[C@@H](C)C(=O)N[C@H](C(=O)N[C@@H](CCCCN)C(=O)N[C@@H](CCCCN)C(=O)N[C@@H](Cc1ccc(O)cc1)C(=O)N[C@@H](CC(C)C)C(=O)N[C@@H](C)C(=O)N[C@@H](C)C(=O)N[C@H](C(=O)N[C@@H](CC(C)C)C(=O)NCC(=O)N[C@@H](CCCCN)C(=O)N[C@@H](CCCNC(=N)N)C(=O)N[C@@H](Cc1ccc(O)cc1)C(=O)N[C@@H](CCCCN)C(=O)N[C@@H](CCC(N)=O)C(=O)N[C@@H](CCCCn1cc(C[C@H](NC(=O)CNC(=O)[C@H](CO)NC(=O)[C@H](CCCNC(=N)N)NC(=O)[C@H](CO)NC(=O)[C@H](CC(C)C)NC(=O)[C@H](CC(C)C)NC(=O)CNC(=O)[C@H](C)NC(=O)[C@H](CC(C)C)NC(=O)[C@H](CCCNC(=N)N)NC(=O)[C@H](Cc2c[nH]cn2)NC(=O)[C@@H](NC(=O)[C@@H](N)C(C)C)[C@@H](C)O)C(=O)N[C@H](C(=O)N[C@H](C(=O)N[C@@H](CCCCN)C(=O)N[C@@H](CC(N)=O)C(=O)N[C@@H](CC(N)=O)C(=O)N[C@@H](Cc2ccccc2)C(=O)N[C@H](C(=O)N2CCC[C@H]2C(=O)N[C@H](C(=O)N[C@@H](CC(N)=O)C(=O)N[C@H](C(=O)NCC(=O)N[C@@H](CO)C(=O)N[C@@H](CCCCN)C(=O)N[C@@H](C)C(=O)N[C@@H](Cc2ccccc2)C(N)=O)C(C)C)[C@@H](C)O)C(C)C)C(C)C)C(C)C)nn1)C(=O)N[C@H](C(=O)N[C@@H](CCCCN)C(=O)N[C@@H](CC(N)=O)C(=O)N[C@@H](CCCCN)C(N)=O)C(C)C)C(C)C)C(C)C`, the Kb was 0.447 µM (VIPR2; cAMP accumulation, antagonist; with: VIP).
With `CN(C)[C@H](CNC(=O)/C=C/c1cccc2ccccc12)Cc1ccc(O)cc1` the Ki was 2.2 µM (D(2) dopamine receptor (DRD2, Homo sapiens, UniProt P14416); cell-free assay).
With `CSCC[C@H](NC(=O)[C@H](CCC(N)=O)NC(=O)[C@H](CCCCN)NC(=O)[C@H](CCCNC(=N)N)NC(=O)[C@H](Cc1ccc(O)cc1)NC(=O)[C@H](CCCNC(=N)N)NC(=O)[C@H](CO)NC(=O)[C@H](Cc1ccc(O)cc1)NC(=O)[C@H](CO)NC(=O)[C@H](CC(=O)O)NC(=O)[C@@H](NC(=O)[C@@H](N)Cc1ccccc1)[C@@H](C)O)C(=O)N[C@@H](C)C(=O)N[C@H](C(=O)N[C@@H](CCCCN)C(=O)N[C@@H](CCCCn1cc(C[C@H](NC(=O)CNC(=O)[C@H](CO)NC(=O)[C@H](CCCNC(=N)N)NC(=O)[C@H](CO)NC(=O)[C@H](CC(C)C)NC(=O)[C@H](CC(C)C)NC(=O)CNC(=O)[C@H](C)NC(=O)[C@H](CC(C)C)NC(=O)[C@H](CCCNC(=N)N)NC(=O)[C@H](Cc2c[nH]cn2)NC(=O)[C@@H](NC(=O)[C@@H](N)C(C)C)[C@@H](C)O)C(=O)N[C@H](C(=O)N[C@H](C(=O)N[C@@H](CCCCN)C(=O)N[C@@H](CC(N)=O)C(=O)N[C@@H](CC(N)=O)C(=O)N[C@@H](Cc2ccccc2)C(=O)N[C@H](C(=O)N2CCC[C@H]2C(=O)N[C@H](C(=O)N[C@@H](CC(N)=O)C(=O)N[C@H](C(=O)NCC(=O)N[C@@H](CO)C(=O)N[C@@H](CCCCN)C(=O)N[C@@H](C)C(=O)N[C@@H](Cc2ccccc2)C(N)=O)C(C)C)[C@@H](C)O)C(C)C)C(C)C)C(C)C)nn1)C(=O)N[C@@H](Cc1ccc(O)cc1)C(=O)N[C@@H](CC(C)C)C(=O)N[C@@H](C)C(=O)N[C@@H](C)C(=O)N[C@H](C(=O)N[C@@H](CC(C)C)C(=O)NCC(=O)N[C@@H](CCCCN)C(=O)N[C@@H](CCCNC(=N)N)C(=O)N[C@@H](Cc1ccc(O)cc1)C(=O)N[C@@H](CCCCN)C(=O)N[C@@H](CCC(N)=O)C(=O)N[C@@H](CCCNC(=N)N)C(=O)N[C@H](C(=O)N[C@@H](CCCCN)C(=O)N[C@@H](CC(N)=O)C(=O)N[C@@H](CCCCN)C(N)=O)C(C)C)C(C)C)C(C)C` the Kb was 4.47 µM (VIPR2; cAMP accumulation, antagonist; COS-7 transfected; first of 2 determinations, with: PACAP-38).
For `COc1ccccc1C(C[N+](=O)[O-])c1c(-c2ccccc2)[nH]c2ccccc12` (centres unmarked), the EC50 was greater than 12 µM (CNR1 I245L; G protein activation, agonist, BRET).
The IC50 of `CC(C)CC(C(=O)N1CC2(CC1C#N)C(=O)Nc1ccccc12)N(C)C(=O)c1cc2c(F)cc(F)c(F)c2[nH]1` (centres unmarked) is reported as greater than 100 µM (Cathepsin E (CTSE, Homo sapiens, UniProt P14091); enzyme activity, inhibitor).

A few entries again:
For `O=C1c2ccccc2CCCN1CCCCN1CCN(c2cccc(Cl)c2Cl)CC1`, the Ki was 0.217 µM (Alpha-1A adrenergic receptor (ADRA1A, Homo sapiens, UniProt P35348); ligand displacement, radioligand).
The IC50 of `CC(C)CC(C(=O)N1CC2(CC1C#N)C(=O)Nc1ccccc12)N(C)C(=O)c1cc2c(F)cc(F)c(F)c2[nH]1` (centres unmarked) is reported as greater than 100 µM (Cathepsin E (CTSE, Homo sapiens, UniProt P14091); enzyme activity, inhibitor).
